Published values of several laboratories.
Every numbered part comes from another study and shows a few of its results, in no order. Changes are numbered by the printed parent chain.

Series 1
Target: Fragile X messenger ribonucleoprotein 1, C-terminal low-complexity region (Fmr1, Mus musculus, UniProt P35922)
Technique: RNA Bind-n-Seq
Form: RNA
Medium: in vitro
Concentration: 200 nM
Setting: whole 134-nt RNA, ends assumed
Added: 150 mM LiCl
Baseline: input library
Reading: higher = stronger binding
Library: 7-deaza-guanosine replaces G
All sequences stand within: GGGAGUUCUACAGUCCGACGAUC … UGGAAUUCUCGGGUGUCAAGG
Strand | log2 enrichment
GCAGGAAGUAAAAACAAAUGGAAAUGCUUCGGAUAGUGGCAGGGGUGGGGGUUGCUAAGGAAAGGGUGGGAUGCGAGUGGGUAAAGAGUU | 1.38
UCCUGUGCUACACAUCGUAUGUACCGAAUCGGGUUUUUUUGGGUUUUUUUGGGUUUGGGAAAGUAUUAUGUUACGCCGUUCGGAUCUGCA | 0.885
GCAGGAAGUAAAAACAAAUGGAAAUGCUUCGGAUAGUGGCAGGGGUGGGGGUUGCUAAGGAAAGUGUGGGAUGGGAGUGGGUAAAGAGUU | 1.47
UAGCUUUAGAGGAGGAUCUGAUGGAUAUGGCAGUGGACGUGGAUUUGGGGAUGGCUAUAAUGGGUAUGGAGGAGGACCUGGAGGUGGCAA | 0.168
GCAGGAAGUAAAAACAAAUGGAAAUGCUUCGGAUAGUGGGAGGGGUGGGGGUUGCUAAGGAAAGGGUGGGAUGGGAGUGGGUAAAGAGUU | 1.21
UGGGAGGUGGAUUUUGUUGAUUUUUUUAGCUCAUUUCCAGGGGUGGGAAUUUUUUUUUAAUAUGUGUCAUGAAUAAAGUUGUUUUUGAAA | 0.293
ACCAUGCAGGUGCGCAUCUUUGGGAAGUGGGGCAAGGGGGGGAUAGGGAGGGGGGUAACACUUUGGGAACAGGUGGUCCCAGGUCGUUUC | 1.12
UCAAGUCCUGUGCUACACAUCGUAUGUACCGAAUCGGGUGGGAGGGAAAAAGGGAAAGUAUUAUGUUACGCCGUUCGGAUCUGCACUUCC | -0.587

Series 2
Target: Prothrombin, mature alpha-thrombin (F2, Homo sapiens, UniProt P00734)
Technique: aptamer microarray, sandwich
Form: DNA with 2'F-ANA
Medium: in vitro
Concentration: 200 nM
Setting: whole 15-mer aptamer, many near background
Added: Cy3 exosite-II aptamer, 400 nM
Reading: higher = stronger binding
Strand: GGTTGGTGTGGTTGG
Modification | mean fluorescence intensity [a.u.]
2'F-ANA at 3 4 5 6 8 9 11 13 14 | 48.6
2'F-ANA at 1 2 4 5 6 7 8 9 11 15 | 58.3
2'F-ANA at 3 4 7 8 9 12 13 14 15 | 359
2'F-ANA at 6 7 10 12 | 237
2'F-ANA at 1 2 3 4 5 7 9 11 12 13 14 | 50.8
2'F-ANA at 1 2 4 6 7 9 13 14 15 | 55.1
2'F-ANA at 1 7 8 9 10 12 14 15 | 67.2
2'F-ANA at 3 4 5 10 | 53.5
2'F-ANA at 2 3 4 5 6 11 13 14 | 61.6
2'F-ANA at 2 6 9 12 13 | 497
2'F-ANA at 1 2 4 7 9 10 11 13 15 | 55.8
2'F-ANA at 1 3 4 5 7 10 11 12 14 | 44.3
2'F-ANA at 1 2 5 6 7 13 14 | 47
2'F-ANA at 2 5 7 8 9 12 13 14 15 | 55
2'F-ANA at 1 2 3 4 5 7 12 14 15 | 48.5
2'F-ANA at 2 3 4 6 7 9 11 12 14 15 | 220
2'F-ANA at 1 2 3 5 6 9 13 14 15 | 47.7
2'F-ANA at 1 2 4 6 9 14 | 49.2
2'F-ANA at 1 2 3 4 6 7 8 15 | 191
2'F-ANA at 1 3 4 6 7 11 14 15 | 63.8
2'F-ANA at 3 6 7 8 9 11 | 924
2'F-ANA at 1 2 3 4 8 10 14 15 | 57.9
2'F-ANA at 7 8 12 15 | 872
2'F-ANA at 3 6 7 8 9 10 13 | 493

Series 3
Target: CRIPT, C-terminal peptide
Technique: DHFR complementation, deep sequencing
Medium: yeast
Setting: single substitutions, model-inferred values
Baseline: wild type
Reading: higher = weaker binding
Parent: ERBIN, PDZ domain 1 (human); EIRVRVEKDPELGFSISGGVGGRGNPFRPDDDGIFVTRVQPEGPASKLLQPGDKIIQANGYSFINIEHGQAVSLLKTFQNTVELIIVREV; partner TKNYKQTSV
Variant | binding free energy change [kcal/mol]
P26I | 0.925
P44T | 0.729
I64G | 0.0141
I2Y | 0.157
D30W | 0.293
I16Q | 0.184
G69P | 0.477
E83P | 0.309
V39L | 0.304
E11Q | -0.13
P51C | 0.218
F63A | 0.618
V82D | 1.21
G69Q | 0.008
G60I | 0.333
S73M | 0.0434
N65R | 0.0873
L84I | -0.189
R38K | 0.0326

Series 4
Target: RING finger protein unkempt homolog, zinc fingers 1-6, GST-SBP tag (UNK, Homo sapiens, UniProt Q9C0B0, residues 30-357)
UniProt Q9C0B0, sequence (30-357, looked up): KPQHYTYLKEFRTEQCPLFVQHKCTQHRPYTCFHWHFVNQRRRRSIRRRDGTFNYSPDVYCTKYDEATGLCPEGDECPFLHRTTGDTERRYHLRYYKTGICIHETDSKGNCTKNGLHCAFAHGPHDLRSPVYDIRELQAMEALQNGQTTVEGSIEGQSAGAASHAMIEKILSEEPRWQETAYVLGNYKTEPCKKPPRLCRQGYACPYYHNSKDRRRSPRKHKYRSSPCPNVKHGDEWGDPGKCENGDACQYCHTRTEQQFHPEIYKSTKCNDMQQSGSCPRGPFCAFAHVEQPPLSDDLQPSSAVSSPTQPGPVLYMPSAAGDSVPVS
Technique: RNA Bind-n-Seq
Form: RNA
Medium: in vitro
Concentration: not given
Setting: RNA with constant flanks, human and mouse sites, ends assumed
Baseline: input RNA pool
Reading: higher = stronger binding
All sequences stand within: GGGAGUUCUACAGUCCGACGAUC … CAACAGAGGAUUGAGCAUCA
Strand | bound/input enrichment
AUGCAUUCACUACUCACGCACUAAAGUUUUGCAGUAAGAGAACUUGAGAGACAAAGUAUUAUUUACUAAAACCCAGGUAAUUGUGGAGACCACAGAACACAUACCUUGAAGGGUCUAAGA | 0.389 ratio
AAGAUUAAAUUGCUUACUGGUAAACGCGUUCAACUGGCGGAAGACCUCAAGAAAGUUAGAGAAAUUCAAGAAAAACUUGAUGCUUUCAUUGAAGCUCUUCAUCAGGAGAAAUAAAUUAAA | 0.314 ratio
AGUGGUGUUGUACAUGAAAUUGGACAUGGGAUAGCAGCUAUUAGGGAACAAGUUCGAUUUAAUGGCUUUGGGAUUUUUCUCUUCAUUAUUUAUCCUGGAGCAUUUGUUGAUCUGUUCACC | 0.319 ratio
AUGAAGCCAAAUAUUGAACCUCCUGAGAAUGUGGAGUGGAGUGGUGCUGAAGCCUCAAUGUUUAGAGUCCUCAUUGGCACUUACUAUGACAAUUUCUGUGCCAUUGCUAGGUUAAUUGGG | 0.457 ratio
AGAAAUCAAUGUAAUUUUAAACCUCAGAUGGAUCUUGAAGUUAAAGAAAUUUCUCUAGAUAGUUAUAAUGCGCAGUUGGUGCAAUUAGAAGCUAUGCUAAGAAAUAAGGAAUUAAAACUU | 0.422 ratio
GGUGUCUCGUGGCCCCGUGAACUCACCGCUCACCCUCCUGAACCCCCCCCCCCCGCCUUUUUUUAAAAUUCACCCCCAUCCACAGUUGUCAGUUGUGAAGAGGGGCCAGAUGACACCCUA | 0.661 ratio
GAAAAUCAAAAGACUAAUAUUAAUACUGUGGCUAAACAGGAACAGCGACCCAUAAAAAAGAAUAGUCUUUAUUCAACAGAUUUCAUAGUGUUUAAUGACAACGAUGGUUCAGAUGAUGAA | 0.738 ratio
CGGGUUCCUCGGGGAGAAAUUCUCUGGAGUCAUCUGGAACUUCUCCGAAAAUAUGUAUUGGCAAGUCAAGAACAACAGAUGAAUGAAAUAGUUACAAUUGAUCAACCUGUGCAAAUUAUU | 0.376 ratio
